Results pooled from the literature.
Parts stem from different laboratories: compare values within a part only.
Chain of UniProt Q6P2M8 (whole entry, looked up): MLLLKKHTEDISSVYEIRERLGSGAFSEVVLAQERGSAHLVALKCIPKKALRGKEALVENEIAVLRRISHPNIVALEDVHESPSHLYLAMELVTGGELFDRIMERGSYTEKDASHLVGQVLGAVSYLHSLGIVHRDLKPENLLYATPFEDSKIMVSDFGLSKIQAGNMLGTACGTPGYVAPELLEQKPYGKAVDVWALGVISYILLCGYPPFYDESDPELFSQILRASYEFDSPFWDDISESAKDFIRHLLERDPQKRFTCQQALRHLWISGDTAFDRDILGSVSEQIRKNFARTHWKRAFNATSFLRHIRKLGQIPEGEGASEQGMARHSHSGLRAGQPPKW
Chain of UniProt P11229 (whole entry, looked up): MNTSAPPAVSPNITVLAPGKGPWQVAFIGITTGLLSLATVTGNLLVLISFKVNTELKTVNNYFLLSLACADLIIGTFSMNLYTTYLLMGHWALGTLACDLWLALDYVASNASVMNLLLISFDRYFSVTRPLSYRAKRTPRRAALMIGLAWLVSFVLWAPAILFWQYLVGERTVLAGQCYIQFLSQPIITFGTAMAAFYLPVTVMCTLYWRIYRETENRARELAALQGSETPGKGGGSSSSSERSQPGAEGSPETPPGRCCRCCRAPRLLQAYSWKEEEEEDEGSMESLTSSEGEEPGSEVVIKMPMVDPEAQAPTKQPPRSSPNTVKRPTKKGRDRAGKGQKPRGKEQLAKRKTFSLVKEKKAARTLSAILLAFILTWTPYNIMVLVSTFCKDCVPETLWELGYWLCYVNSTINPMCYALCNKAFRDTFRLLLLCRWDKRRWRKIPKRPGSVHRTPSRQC
Chain of UniProt P41143 (whole entry, looked up): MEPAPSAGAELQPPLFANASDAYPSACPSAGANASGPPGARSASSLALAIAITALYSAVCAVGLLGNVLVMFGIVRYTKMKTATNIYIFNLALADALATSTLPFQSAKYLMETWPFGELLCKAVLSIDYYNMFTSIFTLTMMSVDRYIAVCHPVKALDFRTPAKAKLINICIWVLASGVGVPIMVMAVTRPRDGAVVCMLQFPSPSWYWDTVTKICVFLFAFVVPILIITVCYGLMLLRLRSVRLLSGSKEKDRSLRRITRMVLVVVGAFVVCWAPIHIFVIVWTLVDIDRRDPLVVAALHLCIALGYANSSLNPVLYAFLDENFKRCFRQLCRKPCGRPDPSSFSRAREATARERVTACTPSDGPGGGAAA
Chain of UniProt P28335 (whole entry, looked up): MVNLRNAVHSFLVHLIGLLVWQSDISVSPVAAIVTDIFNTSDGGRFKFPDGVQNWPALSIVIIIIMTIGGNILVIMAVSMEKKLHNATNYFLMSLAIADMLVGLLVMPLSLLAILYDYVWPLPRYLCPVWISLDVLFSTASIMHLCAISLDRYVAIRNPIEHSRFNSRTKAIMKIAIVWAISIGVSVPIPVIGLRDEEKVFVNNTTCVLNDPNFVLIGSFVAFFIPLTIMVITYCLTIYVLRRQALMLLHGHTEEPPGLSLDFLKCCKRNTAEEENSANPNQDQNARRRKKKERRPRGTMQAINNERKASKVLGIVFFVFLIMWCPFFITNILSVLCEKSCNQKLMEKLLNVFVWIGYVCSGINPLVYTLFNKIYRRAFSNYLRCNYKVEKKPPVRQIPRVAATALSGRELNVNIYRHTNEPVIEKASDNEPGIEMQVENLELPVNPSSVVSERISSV
Chain of UniProt P50750 (whole entry, looked up): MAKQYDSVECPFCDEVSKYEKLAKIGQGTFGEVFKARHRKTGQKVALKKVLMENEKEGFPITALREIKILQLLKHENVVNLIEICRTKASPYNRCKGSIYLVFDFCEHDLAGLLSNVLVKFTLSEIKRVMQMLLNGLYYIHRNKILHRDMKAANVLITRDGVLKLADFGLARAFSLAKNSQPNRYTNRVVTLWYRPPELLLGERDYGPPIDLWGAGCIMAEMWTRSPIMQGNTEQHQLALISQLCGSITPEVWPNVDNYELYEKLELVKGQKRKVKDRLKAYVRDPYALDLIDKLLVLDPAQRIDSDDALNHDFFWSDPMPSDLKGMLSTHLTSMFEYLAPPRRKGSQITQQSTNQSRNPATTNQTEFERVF
Chain of UniProt Q13464 (whole entry, looked up): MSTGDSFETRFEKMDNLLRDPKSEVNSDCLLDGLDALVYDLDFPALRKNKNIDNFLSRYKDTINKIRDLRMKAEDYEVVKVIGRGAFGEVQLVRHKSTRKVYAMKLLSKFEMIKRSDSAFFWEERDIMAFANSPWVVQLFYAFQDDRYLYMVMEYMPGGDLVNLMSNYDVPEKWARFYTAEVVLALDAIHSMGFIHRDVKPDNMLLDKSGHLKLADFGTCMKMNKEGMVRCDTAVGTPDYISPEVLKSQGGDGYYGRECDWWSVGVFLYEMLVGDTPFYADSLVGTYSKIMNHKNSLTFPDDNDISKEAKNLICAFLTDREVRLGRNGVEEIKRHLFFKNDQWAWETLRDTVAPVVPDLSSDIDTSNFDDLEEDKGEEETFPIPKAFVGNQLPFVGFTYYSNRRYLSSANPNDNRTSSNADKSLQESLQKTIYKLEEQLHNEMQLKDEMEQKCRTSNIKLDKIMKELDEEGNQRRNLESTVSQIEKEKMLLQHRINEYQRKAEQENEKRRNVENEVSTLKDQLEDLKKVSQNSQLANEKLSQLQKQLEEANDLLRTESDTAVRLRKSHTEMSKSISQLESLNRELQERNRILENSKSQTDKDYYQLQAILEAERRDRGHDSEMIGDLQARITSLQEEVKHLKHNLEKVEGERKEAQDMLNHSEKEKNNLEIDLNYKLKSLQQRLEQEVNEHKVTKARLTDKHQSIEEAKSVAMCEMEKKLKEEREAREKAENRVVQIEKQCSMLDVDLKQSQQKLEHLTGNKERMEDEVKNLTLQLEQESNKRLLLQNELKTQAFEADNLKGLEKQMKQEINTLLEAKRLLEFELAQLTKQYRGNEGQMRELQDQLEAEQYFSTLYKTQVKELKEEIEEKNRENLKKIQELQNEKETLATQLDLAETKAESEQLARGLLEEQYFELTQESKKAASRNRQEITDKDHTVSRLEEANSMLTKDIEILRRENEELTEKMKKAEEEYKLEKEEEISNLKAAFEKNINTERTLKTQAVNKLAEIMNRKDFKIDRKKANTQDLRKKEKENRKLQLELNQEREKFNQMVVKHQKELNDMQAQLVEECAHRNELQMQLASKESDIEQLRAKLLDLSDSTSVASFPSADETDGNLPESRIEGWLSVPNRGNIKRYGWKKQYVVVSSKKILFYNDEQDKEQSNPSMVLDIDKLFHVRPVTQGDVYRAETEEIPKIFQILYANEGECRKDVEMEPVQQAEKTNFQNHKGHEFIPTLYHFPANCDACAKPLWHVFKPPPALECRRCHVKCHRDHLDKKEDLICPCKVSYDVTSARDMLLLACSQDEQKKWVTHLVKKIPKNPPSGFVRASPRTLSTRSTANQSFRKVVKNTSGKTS
Chain of UniProt O75676 (whole entry, looked up): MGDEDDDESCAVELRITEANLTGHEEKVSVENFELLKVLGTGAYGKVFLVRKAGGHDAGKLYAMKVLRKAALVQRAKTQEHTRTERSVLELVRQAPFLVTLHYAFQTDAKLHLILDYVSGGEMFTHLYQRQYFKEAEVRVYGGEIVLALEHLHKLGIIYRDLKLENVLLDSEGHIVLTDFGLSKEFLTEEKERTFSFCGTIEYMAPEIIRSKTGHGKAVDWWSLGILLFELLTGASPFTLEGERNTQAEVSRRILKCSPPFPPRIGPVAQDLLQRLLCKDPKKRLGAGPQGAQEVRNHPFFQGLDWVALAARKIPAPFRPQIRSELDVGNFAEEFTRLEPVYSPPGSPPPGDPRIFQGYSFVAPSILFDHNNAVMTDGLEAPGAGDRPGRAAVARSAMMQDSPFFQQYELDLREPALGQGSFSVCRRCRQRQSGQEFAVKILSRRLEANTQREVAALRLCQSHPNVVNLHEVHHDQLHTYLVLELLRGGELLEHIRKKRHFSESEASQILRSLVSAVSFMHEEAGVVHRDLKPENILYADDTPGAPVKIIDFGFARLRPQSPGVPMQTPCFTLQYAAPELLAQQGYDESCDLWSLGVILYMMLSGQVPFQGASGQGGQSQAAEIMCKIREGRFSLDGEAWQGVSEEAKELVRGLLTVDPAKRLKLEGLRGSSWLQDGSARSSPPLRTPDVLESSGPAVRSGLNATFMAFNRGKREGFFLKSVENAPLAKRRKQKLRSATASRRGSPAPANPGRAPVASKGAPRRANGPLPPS
Chain of UniProt P42681 (whole entry, looked up): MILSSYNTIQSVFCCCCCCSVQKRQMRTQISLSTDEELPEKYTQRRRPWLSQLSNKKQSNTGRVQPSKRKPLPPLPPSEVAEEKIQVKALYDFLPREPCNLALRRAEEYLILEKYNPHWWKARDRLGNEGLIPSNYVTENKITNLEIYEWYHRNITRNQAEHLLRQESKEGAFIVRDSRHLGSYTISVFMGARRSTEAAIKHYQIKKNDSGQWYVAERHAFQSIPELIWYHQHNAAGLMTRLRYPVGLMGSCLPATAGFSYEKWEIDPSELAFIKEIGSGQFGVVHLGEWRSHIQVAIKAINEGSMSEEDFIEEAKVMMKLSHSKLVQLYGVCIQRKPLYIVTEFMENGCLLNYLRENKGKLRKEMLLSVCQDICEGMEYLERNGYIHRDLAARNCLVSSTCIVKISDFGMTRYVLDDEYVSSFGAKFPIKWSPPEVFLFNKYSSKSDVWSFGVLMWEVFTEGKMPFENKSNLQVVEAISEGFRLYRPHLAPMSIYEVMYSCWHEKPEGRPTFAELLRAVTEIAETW
Chain of UniProt P06493 (whole entry, looked up): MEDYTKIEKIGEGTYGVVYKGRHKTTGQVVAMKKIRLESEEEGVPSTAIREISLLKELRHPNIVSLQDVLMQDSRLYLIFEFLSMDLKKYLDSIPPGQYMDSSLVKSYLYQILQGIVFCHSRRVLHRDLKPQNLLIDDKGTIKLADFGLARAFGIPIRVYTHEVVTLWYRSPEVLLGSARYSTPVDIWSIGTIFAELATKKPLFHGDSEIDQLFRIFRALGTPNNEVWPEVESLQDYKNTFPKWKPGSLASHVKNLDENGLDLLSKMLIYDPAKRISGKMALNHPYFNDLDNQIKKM

Series 1 — observed: enzyme activity; mode: inhibitor; concentration: 0.5 µM; reference: control
Structure (SMILES): N/C(=N\[N+](=O)[O-])N/N=C\c1ccc(-c2cccc([N+](=O)[O-])c2)o1
target | remaining activity [%]
Tyrosine-protein kinase TXK (TXK, Homo sapiens, UniProt P42681) | 98.3
Dual specificity mitogen-activated protein kinase kinase 1 (MAP2K1, Homo sapiens, UniProt Q02750) | 105
Dual specificity protein kinase CLK3 (CLK3, Homo sapiens, UniProt P49761) | 97.7
Ribosomal protein S6 kinase alpha-4 (RPS6KA4, Homo sapiens, UniProt O75676) | 98.9
MAP/microtubule affinity-regulating kinase 4 (MARK4, Homo sapiens, UniProt Q96L34) | 87.6
Mitogen-activated protein kinase 14 (MAPK14, Homo sapiens, UniProt Q16539) | 90.2
Serine/threonine-protein kinase PAK 3 (PAK3, Homo sapiens, UniProt O75914) | 95.1
Rho-associated protein kinase 1 (ROCK1, Homo sapiens, UniProt Q13464) | 91.7
Cyclin-dependent kinase 9, with cyclin K (CDK9, Homo sapiens, UniProt P50750) | 95.7
Calcium/calmodulin-dependent protein kinase type 1B (PNCK, Homo sapiens, UniProt Q6P2M8) | 100
Serine/threonine-protein kinase Nek3 (NEK3, Homo sapiens, UniProt P51956) | 101
Calcium/calmodulin-dependent protein kinase type IV (CAMK4, Homo sapiens, UniProt Q16566) | 95.2
Cyclin-dependent kinase 1, with cyclin A (CDK1, Homo sapiens, UniProt P06493) | 100

Series 2 — cell line: mouse MPNST tumor cells; method: high-content nuclear imaging; refers to: cell number; concentration: 10 µM; time: 12 h; notes: mean of 2 replicates; reference: plate mean; reading: higher = more cells
SMILES | nuclei count [z-score]
O=C(NCNC(=O)NC1C(=O)NC(=O)N1CO)NC1C(=O)NC(=O)N1CO (centres unmarked) | 1.4
CC1(N2CCC(n3c([C@@H]4CCCNC4)nc4ccccc43)CC2)CCCCCCC1 | -6.55
Clc1cccc(SC2CCNCC2)n1 | 2.5
CCNC1=Nc2ccc(Cl)cc2C(C)(c2ccccc2)O1 (centres unmarked) | -0.313
CN(C(=O)Cc1ccc(Cl)c(Cl)c1)[C@H](CN1CCCC1)c1ccccc1 | -5.83
CN1[C@@H]2CC[C@H]1C[C@@H](OC(=O)c1cc(Cl)cc(Cl)c1)C2 | 2.2

Series 3 — observed: binding; method: radioligand binding; concentration: 10 µM
SMILES: CCC(=O)N[C@H]1CC[C@@H](C(=O)N(C)c2ccc(-c3nc4ccccc4o3)cc2)C1
target | inhibition [%]
Delta-type opioid receptor (OPRD1, Homo sapiens, UniProt P41143) | -17.5
5-hydroxytryptamine receptor 2C (HTR2C, Homo sapiens, UniProt P28335) | 8.87
Muscarinic acetylcholine receptor M1 (CHRM1, Homo sapiens, UniProt P11229) | 3.53

Series 4 — cell line: HaCaT; concentration: 100 µM; time: 18 h
Structure (SMILES) | viability [%]
COc1cccc2c1cc([N+](=O)[O-])c1c(C(=O)O)cc3c(c12)OCO3 | 78.3
CC(CCc1ccccc1)NC(C)C(O)c1ccc(O)cc1 (centres unmarked) | 110
C#C[C@]1(O)C=C[C@H]2[C@@H]3CCC4=CC(=O)CC[C@@H]4[C@H]3CC[C@@]21CC | 85.2

Mixed results
Compound | target | assay | setting | endpoint | value
C=CC(=O)N1CCC[C@@H](n2nc(-c3ccc(Oc4ccccc4)cc3)c3c(N)ncnc32)C1 | Serine/threonine-protein kinase PknB (pknB, Mycobacterium tuberculosis, UniProt P9WI81) | enzyme activity, inhibitor | 1 µM | inhibition | 0%

A few entries again (series 1):
target | remaining activity [%]
MAP/microtubule affinity-regulating kinase 4 (MARK4, Homo sapiens, UniProt Q96L34) | 87.6
Mitogen-activated protein kinase 14 (MAPK14, Homo sapiens, UniProt Q16539) | 90.2
